Assay results from different studies.
A part holds a random share of what one study measured. Positions count from the first letter of the parent shown.

Study 1 — method: protein-binding microarray; molecule type: double-stranded DNA, one strand shown; medium: in vitro; tested at: 0.8 µM; setting: whole 60-bp probe, no competitor; direction: higher = stronger binding; quantity: fluorescence intensity; all sequences stand within: … GTCTTGATTCGCTTGACGCTGCTG
Target: Centromere-binding protein 1, full length, N-terminal tag (CBF1, Saccharomyces cerevisiae, UniProt P17106, residues 1-351)
UniProt P17106, sequence (whole entry, looked up): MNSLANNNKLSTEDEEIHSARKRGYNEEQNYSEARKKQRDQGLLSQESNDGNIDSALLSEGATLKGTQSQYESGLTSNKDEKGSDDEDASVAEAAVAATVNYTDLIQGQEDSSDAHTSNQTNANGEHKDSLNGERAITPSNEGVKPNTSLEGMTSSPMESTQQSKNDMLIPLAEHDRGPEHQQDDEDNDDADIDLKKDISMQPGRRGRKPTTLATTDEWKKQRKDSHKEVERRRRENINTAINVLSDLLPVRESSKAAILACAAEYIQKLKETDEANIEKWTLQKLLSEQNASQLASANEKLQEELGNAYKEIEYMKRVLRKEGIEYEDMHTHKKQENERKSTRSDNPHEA
CTACTTGGAATTTTTCACATGTTTGCAGTGAATTTC: 660 a.u.
CTAACTGACTGGACTTGGGTCACAATTTGAATTTTC: 582 a.u.
GAACTGGAAGGGCATCACCCGTCAAAACACTAATAG: 476 a.u.
CTAGTTTCTTTGGTGATCATGATATTAATAGAATTC: 616 a.u.
TGTACGAAGCTATTGCACGCTATTATAGTAGTTAGG: 525 a.u.
CTATTGATTTAGTGTCATGAGAGTGCTCCAAATTTC: 587 a.u.
CCTAACTACTATAAGCACGTGGGATAGCTTCGTACA: 5640 a.u.
CTAATGAAACGACACCACCTCCCACGATTGGGGTTC: 488 a.u.

Study 2 — method: protein binding microarray; molecule type: double-stranded DNA, one strand shown; medium: in vitro; tested at: not given; baseline: not given; direction: higher = stronger binding; quantity: E-score
Target: Histone acetyltransferase KAT6A, both winged helices, GST fusion (KAT6A, Homo sapiens, UniProt Q92794, residues 1-181)
Setting: 8-mer, flanks averaged, mean of 2 arrays, mostly near background
Construct (chain): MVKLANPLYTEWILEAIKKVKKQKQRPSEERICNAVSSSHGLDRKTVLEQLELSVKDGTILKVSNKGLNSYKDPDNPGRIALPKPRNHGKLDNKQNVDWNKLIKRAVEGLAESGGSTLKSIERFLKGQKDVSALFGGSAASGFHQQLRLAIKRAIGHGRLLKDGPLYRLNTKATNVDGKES
AGCTGGAC: -0.174
AACCAGTT: -0.0357
AGGGAGAG: -0.214
CAAACTGG: -0.237
TATTTCCA: -0.218
CGGGTGAG: 0.0872
AACCGCAT: 0.245
AAGTTGAA: -0.205

Study 3 — method: EMSA with sequencing; molecule type: double-stranded DNA, one strand shown; medium: in vitro; tested at: 10 and 20 nM; baseline: negative control set to 0; direction: higher = stronger binding; quantity: normalised bound fraction
Target: Hepatocyte nuclear factor 3-alpha (Foxa1, Mus musculus, UniProt P35582, residues 1-468, full length assumed)
UniProt P35582, sequence (whole entry, looked up): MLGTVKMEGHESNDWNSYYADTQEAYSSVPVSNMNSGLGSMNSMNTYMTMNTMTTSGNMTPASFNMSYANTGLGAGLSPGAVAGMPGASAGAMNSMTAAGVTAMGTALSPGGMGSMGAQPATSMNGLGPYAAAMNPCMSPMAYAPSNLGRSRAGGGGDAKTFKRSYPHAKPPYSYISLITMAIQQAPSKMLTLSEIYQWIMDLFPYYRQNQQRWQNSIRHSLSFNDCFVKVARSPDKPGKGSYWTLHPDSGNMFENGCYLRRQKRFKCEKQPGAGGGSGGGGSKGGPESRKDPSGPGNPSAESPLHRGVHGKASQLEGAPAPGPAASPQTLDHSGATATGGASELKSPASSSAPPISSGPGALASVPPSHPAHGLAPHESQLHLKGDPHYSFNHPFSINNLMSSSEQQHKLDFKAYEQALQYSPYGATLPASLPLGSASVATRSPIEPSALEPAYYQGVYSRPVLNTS
Setting: whole designed probe, mean of two concentrations, ends assumed
All sequences stand within: GTGAGCGGTGCCCATTGATGGGGAAC … TTTCACTGGGATCGTGGGGAC
GGATGGCCTGTGGATCACGCTTTGAGTAGCAAGCTATGGACTGTTCACTGGTCATATGAAAAAGATGATGACACTGATTAGGCCCACCAGCTAAGTAAACATCGAAAACTCATTCAGCCCCATGAAGTCACTAGAGCTGTGTTAAACAGCCAGTGTGGTCAACAGAAGAAATTTATGTCATGGTATTTGCTTA: 0.491 ratio
GGTGACAAACCCAAGGCTTGTGGGCTCTGCACACCCTCCACAGTCTTTTGTGTGGCCTGTTGGCAGTTTGATTTTTACGTTTTTGGGGGATGTTGTTTGCTTTGTCTTTAAGTTTAGATGTCCGGGTTTTGTTGAGGAAAAAGAAACCCACACCAGATTTACAGTCCCCTAGATCCCCCATCTCATTCTGTGC: 0.258 ratio
TCAAAAAAAGAAAAAGAAAAGCGACGACATTCAGTCAATCAGCCAGATATTTTTGGTGATGCTGCAACTCTTAATGGTATCCTGTCTGGATTCTGTTTATTTAGTTCCTAAGTTGGTAAATACAGTGCCTGTTAATCATTAACCTTTGCCTTGTCATTGACAAAGAGTTCACTTGTCAAGCTGTGAGTGGAAC: 0.429 ratio
CTTCCACCCGCTCCTTCTCCCTGGATTAAAACACCACGAATTTTCTGCTCTTTGCTTTTCTTGAATAAGTTACCAAAAAAGAGCAGAACTAAGTCATCTCCAAACTGCCCTTTGGATAAACAAGATGGAGCAGATTAAATTACCTTGGAACATGATTTTGAATTCAAGCCATGAAGTACACTGGAGGAATGCC: 0.0494 ratio
GTGTGCTAGCCTGTGAGTTTTTCTCTCCAACTAGCCTGGGTACTCAGGAAAGTGAGATTTGGGTGTAGCCAACTTCTGGGTGGCCTGACCTGTGCAAATAGGGGAGACAGTTGACATACAGATGAAAGGGGAGATGGGAAGCCATACAGAGGAAGGAGAAGATCAGGAACCAGAGATAAGATAATTCTGTAAA: 0.201 ratio

Other studies, line by line
Starting sequence: viral docking peptide; TSVRRALFTGGSD; partner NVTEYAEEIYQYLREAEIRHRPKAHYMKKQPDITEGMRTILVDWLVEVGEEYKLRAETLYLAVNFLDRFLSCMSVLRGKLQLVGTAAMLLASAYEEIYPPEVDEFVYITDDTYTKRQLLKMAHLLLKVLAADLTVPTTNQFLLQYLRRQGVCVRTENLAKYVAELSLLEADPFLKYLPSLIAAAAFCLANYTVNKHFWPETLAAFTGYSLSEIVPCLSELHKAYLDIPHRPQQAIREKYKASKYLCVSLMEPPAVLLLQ
TSVRRALFAGGSD [T9A] — normalised enrichment score (CCNA1, cyclin fold, Cln2 fusion (human); yeast growth competition, sequencing; yeast; strong parent motif; baseline: not given, higher = stronger binding): 0.767

Some of these lines once more (study 2):
AAGTTGAA: -0.205
